{"data": "Earlier results, collected from citations in different studies", "pyrG": "pyrG (Escherichia coli, UniProt P0A7E5)", "BCHE": "Cholinesterase (BCHE, Homo sapiens, UniProt P06276)", "lasR": "Transcriptional activator protein LasR (lasR, Pseudomonas aeruginosa, UniProt P25084)", "note": "± gives the spread as reported.", "sequence of UniProt P25084 (whole entry, looked up)": "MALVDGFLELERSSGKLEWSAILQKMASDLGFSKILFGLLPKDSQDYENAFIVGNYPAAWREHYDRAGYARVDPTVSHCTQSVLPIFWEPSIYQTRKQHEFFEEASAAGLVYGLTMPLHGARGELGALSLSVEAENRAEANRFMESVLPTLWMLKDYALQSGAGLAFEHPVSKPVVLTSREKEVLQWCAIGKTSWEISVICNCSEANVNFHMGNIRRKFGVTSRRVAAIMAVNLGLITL", "sequence of UniProt P0A7E5 (whole entry, looked up)": "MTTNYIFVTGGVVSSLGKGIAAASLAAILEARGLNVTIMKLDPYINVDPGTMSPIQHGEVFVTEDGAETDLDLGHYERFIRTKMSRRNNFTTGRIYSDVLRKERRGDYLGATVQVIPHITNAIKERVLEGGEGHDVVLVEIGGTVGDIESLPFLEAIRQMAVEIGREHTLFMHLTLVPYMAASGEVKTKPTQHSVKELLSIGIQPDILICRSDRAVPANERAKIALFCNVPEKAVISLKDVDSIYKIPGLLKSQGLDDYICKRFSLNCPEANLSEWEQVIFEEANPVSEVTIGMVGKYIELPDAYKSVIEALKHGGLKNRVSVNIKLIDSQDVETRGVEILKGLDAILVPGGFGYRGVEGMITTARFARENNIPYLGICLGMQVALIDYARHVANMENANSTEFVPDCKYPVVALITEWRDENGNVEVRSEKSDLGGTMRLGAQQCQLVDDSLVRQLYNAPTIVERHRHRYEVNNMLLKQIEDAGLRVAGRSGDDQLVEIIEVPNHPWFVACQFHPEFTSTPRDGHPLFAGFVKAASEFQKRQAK", "sequence of UniProt P06276 (whole entry, looked up)": "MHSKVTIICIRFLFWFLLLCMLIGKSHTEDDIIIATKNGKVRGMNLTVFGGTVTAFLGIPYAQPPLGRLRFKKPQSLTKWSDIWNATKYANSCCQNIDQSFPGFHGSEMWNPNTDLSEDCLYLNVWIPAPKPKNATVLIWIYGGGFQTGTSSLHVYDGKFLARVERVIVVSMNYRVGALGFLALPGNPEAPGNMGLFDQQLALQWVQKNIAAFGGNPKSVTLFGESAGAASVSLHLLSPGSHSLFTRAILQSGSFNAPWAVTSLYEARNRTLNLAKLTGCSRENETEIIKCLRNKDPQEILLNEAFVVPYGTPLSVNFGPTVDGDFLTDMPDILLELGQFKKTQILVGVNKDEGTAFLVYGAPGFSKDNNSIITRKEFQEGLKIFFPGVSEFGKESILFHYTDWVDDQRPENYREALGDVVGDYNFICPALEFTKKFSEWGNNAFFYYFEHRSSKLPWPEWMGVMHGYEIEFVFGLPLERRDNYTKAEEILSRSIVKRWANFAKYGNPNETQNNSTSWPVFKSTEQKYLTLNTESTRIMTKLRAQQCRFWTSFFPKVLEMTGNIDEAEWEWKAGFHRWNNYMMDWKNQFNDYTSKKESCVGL", "sequence of UniProt P30542 (whole entry, looked up)": "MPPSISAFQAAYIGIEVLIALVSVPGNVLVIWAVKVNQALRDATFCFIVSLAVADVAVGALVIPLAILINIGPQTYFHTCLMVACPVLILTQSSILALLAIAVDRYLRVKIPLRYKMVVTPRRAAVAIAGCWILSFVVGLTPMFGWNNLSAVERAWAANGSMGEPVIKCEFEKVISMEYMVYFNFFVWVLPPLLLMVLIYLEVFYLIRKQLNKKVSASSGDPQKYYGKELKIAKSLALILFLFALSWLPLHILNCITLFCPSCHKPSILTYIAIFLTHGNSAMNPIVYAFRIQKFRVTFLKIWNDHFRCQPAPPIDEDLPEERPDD", "sequence of UniProt P53341 (whole entry, looked up)": "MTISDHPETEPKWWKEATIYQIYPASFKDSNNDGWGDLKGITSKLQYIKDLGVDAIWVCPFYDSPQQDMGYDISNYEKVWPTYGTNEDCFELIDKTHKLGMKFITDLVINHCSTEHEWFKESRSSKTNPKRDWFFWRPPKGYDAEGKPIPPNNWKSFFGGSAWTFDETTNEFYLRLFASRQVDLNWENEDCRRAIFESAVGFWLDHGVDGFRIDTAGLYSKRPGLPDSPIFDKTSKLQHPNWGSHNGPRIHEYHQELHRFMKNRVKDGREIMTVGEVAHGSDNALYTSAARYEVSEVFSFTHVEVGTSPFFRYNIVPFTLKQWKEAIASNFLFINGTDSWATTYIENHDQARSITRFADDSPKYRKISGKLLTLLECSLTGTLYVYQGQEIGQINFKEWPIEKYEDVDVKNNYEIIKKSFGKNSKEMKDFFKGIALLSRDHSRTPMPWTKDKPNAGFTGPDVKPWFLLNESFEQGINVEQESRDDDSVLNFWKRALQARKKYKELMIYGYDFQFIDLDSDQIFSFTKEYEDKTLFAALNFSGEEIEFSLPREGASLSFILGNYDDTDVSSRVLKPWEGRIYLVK", "sequence of UniProt Q9UH17 (whole entry, looked up)": "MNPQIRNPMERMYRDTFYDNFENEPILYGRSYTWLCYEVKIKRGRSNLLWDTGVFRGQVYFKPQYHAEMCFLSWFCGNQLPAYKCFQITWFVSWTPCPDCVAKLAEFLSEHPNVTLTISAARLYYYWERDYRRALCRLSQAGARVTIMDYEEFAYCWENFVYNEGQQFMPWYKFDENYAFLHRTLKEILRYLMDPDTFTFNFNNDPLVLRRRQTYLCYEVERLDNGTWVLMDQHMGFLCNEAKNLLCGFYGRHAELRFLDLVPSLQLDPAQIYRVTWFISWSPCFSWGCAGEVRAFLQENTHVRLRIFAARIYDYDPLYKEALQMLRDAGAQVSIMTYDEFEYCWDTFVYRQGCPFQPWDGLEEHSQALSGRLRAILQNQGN", "sequence of UniProt P28335 (whole entry, looked up)": "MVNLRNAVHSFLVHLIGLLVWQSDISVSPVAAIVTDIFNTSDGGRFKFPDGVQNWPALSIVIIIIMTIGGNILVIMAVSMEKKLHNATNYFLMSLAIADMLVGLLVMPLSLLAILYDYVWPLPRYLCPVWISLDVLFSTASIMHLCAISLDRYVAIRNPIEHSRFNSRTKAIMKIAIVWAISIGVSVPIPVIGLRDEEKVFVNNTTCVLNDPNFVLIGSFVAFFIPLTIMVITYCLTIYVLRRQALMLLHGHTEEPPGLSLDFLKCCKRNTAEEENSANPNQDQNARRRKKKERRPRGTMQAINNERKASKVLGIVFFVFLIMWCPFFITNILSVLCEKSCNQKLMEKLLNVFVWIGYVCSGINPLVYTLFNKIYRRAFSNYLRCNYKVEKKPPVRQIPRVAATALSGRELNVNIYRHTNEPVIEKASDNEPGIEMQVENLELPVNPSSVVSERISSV", "sequence of UniProt Q9H2X3 (whole entry, looked up)": "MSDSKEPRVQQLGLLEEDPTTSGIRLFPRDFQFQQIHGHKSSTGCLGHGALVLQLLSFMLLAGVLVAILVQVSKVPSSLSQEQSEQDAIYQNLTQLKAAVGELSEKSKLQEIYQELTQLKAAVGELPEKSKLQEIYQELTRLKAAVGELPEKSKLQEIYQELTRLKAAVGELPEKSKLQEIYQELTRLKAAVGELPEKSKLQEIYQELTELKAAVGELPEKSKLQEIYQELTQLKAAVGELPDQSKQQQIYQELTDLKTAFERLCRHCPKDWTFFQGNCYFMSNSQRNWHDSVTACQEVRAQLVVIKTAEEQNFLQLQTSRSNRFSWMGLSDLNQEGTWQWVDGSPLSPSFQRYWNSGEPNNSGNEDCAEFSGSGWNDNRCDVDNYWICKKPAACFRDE", "sequence of UniProt O43318 (whole entry, looked up)": "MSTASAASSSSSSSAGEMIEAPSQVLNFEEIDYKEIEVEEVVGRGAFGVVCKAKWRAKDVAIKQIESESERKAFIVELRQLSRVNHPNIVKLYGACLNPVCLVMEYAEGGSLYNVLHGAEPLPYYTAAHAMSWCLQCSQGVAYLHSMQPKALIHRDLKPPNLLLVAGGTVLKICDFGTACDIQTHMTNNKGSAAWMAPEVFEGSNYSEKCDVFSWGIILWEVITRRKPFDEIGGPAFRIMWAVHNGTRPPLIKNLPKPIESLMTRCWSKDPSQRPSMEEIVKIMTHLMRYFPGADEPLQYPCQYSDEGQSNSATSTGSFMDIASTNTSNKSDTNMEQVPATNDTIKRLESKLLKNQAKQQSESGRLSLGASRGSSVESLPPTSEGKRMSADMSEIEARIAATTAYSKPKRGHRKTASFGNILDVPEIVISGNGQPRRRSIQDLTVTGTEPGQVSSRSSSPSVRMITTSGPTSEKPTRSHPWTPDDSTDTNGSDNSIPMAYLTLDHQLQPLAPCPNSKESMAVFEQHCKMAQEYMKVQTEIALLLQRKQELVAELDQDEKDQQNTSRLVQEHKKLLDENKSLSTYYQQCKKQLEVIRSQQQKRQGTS"}
{"SMILES": "Nc1ccn(C2OC(COP(=O)(O)OP(=O)(O)OP(=O)(O)O)C(O)C2F)c(=O)n1 (stereo not shown)", "tested on": "pyrG", "test": "enzyme activity, inhibitor", "setting": "wild type, added: UTP 0.05 mM", "quantity": "IC50", "value": "35 µM"}
{"SMILES": "O=C(/C=C/c1ccc(OCc2ccc([N+](=O)[O-])cc2)cc1)NCCc1c[nH]c2ccccc12", "tested on": "BCHE", "quantity": "IC50", "value": "0.55 ± 0.04 µM"}
{"SMILES": "CC[C@H](C)[C@H](NC(=O)CNC(=O)[C@H](CS)NC(=O)CNC(=O)[C@H](CO)NC(=O)[C@@H](NC(=O)[C@@H](NC(=O)[C@@H](NC(=O)[C@H](CC(N)=O)NC(=O)[C@@H](NC(=O)[C@H](CO)NC(=O)[C@H](CS)NC(=O)[C@H](C)NC(=O)[C@H](Cc1ccccc1)NC(=O)[C@H](CCCNC(=N)N)NC(=O)[C@H](CS)NC(=O)[C@H](CCCCN)NC(=O)[C@@H](NC(=O)CNC(=O)[C@@H](N)CO)[C@@H](C)CC)[C@@H](C)CC)[C@@H](C)O)[C@@H](C)O)[C@@H](C)CC)C(=O)N[C@@H](CO)C(=O)N[C@@H](CS)C(=O)N[C@@H](CCCCN)C(=O)N[C@@H](Cc1ccccc1)C(=O)O", "tested on": "Pseudomonas aeruginosa", "quantity": "MIC", "value": "16 µM"}
{"SMILES": "NC(Cc1cc(O)c(O)cc1O)C(=O)O (stereo not shown)", "tested on": "DNA dC->dU-editing enzyme APOBEC-3B, C-terminal domain (Homo sapiens, UniProt Q9UH17)", "quantity": "IC50", "value": "0.15 µM"}
{"SMILES": "O=C(CCCCCCCCCN=C=S)CC(=O)N[C@H]1CCOC1=O", "tested on": "lasR", "test": "reporter gene, antagonist, lasI-lacZ reporter", "test system": "PAO1", "quantity": "IC50", "value": "100 µM"}
{"SMILES": "CNC(=O)[C@@]12C[C@@H]1[C@@H](n1cnc3c(NC(C4CC4)C4CC4)nc(Cl)nc31)[C@H](O)[C@@H]2O", "tested on": "ADORA1 (Homo sapiens, UniProt P30542)", "test": "binding", "setting": "added: [3H]R-PIA", "quantity": "Ki", "value": "0.11 ± 0.014 µM"}
{"SMILES": "COc1cc(O)c2c(c1)C=CCC(O)C(O)C(=O)CCCC(C)OC2=O (stereo not shown)", "tested on": "MAP3K7 (Homo sapiens, UniProt O43318)", "test": "enzyme activity, inhibitor", "quantity": "IC50", "value": "2.6 µM"}
{"SMILES": "NCc1cn([C@@H]2[C@@H](OCCCl)O[C@H](CO)[C@@H](O)[C@@H]2O)nn1", "tested on": "C-type lectin domain family 4 member M, extracellular domain (CLEC4M, Homo sapiens, UniProt Q9H2X3)", "test": "binding to SARS-CoV-2 spike, inhibitor, surface plasmon resonance", "setting": "added: spike surface 1766 RU", "quantity": "IC50", "value": "285 ± 21.2 µM"}
{"SMILES": "O=C(Cc1ccc(Br)cc1)N[C@H]1CCOC1=O", "tested on": "lasR", "test": "reporter gene, antagonist, lasI-lacZ reporter", "test system": "Escherichia coli", "quantity": "IC50", "value": "6 µM"}
{"SMILES": "Cc1ccc(NC(=O)Cn2cc(COc3ccccc3C=O)nn2)cc1C", "tested on": "BCHE", "test": "inhibitor", "quantity": "IC50", "value": "1.72 µM"}
{"SMILES": "CC(C)[C@H](NC(=O)[C@H](CCCNC(=N)N)NC(=O)[C@H](Cc1ccccc1)NC(=O)[C@H](CS)NC(=O)[C@@H](N)Cc1c[nH]c2ccccc12)C(=O)N[C@@H](CS)C(=O)N[C@@H](Cc1ccccc1)C(=O)N[C@@H](CCCCN)C(=O)NCC(=O)N[C@@H](Cc1ccccc1)C(=O)N[C@@H](CS)C(=O)N[C@@H](Cc1ccc(O)cc1)C(=O)N[C@@H](CCCNC(=N)N)C(=O)N[C@@H](Cc1ccccc1)C(=O)N[C@@H](CS)C(=O)O", "tested on": "Pseudomonas aeruginosa", "quantity": "MIC", "value": "32 µM"}
{"SMILES": "O=C(COc1ccc(C(c2c(O)c3ccccc3oc2=O)c2c(O)c3ccccc3oc2=O)cc1)Nc1ccc(Br)cc1", "tested on": "MAL12 (Saccharomyces cerevisiae S288c, UniProt P53341)", "test": "inhibitor", "quantity": "IC50", "value": "41.73 ± 0.36 µM"}
{"SMILES": "O=C1C=C(Br)/C(=C/Br)O1", "tested on": "lasR", "test": "reporter gene, antagonist, lasB-gfp(ASV) reporter", "test system": "PAO1", "quantity": "IC50", "value": "2 µM"}
{"SMILES": "Cc1noc(C)c1-c1cc(N)c2ncn(Cc3ccc(C4CO4)cc3)c2c1 (stereo not shown)", "tested on": "Bromodomain-containing protein 4, BD1 (BRD4, Homo sapiens, UniProt O60885)", "test": "biochemical", "setting": "bromodomain 1", "quantity": "IC50", "value": "0.03 µM"}
{"SMILES": "Nc1ccn(C2OC(COP(=O)(O)OP(=O)(O)OP(=O)(O)O)C(O)C2O)c(=O)n1 (stereo not shown)", "tested on": "pyrG", "test": "enzyme activity, inhibitor", "setting": "wild type, added: UTP 0.20 mM", "quantity": "IC50", "value": "> 1000 µM"}
{"SMILES": "Cc1noc(C)c1-c1ccc(=O)n(Cc2ccc(C3CO3)c(F)c2)c1 (stereo not shown)", "tested on": "Bromodomain-containing protein 4, BD2 (BRD4, Homo sapiens, UniProt O60885)", "test": "biochemical", "setting": "bromodomain 2", "quantity": "IC50", "value": "0.13 µM"}
{"SMILES": "COC(=O)OC1C(=O)C2(C)C(O)CC3OCC3(OC(C)=O)C2C(OC(=O)c2cccc(OC(F)(F)F)c2)C2(O)CC(OC(=O)C(O)C(C=C(C)C)NC(=O)OC(C)(C)C)C(C)=C1C2(C)C (stereo not shown)", "tested on": "LCC6-WT", "test": "cytotoxicity", "quantity": "IC50", "value": "0.00085 µM"}
{"SMILES": "Nc1ccn(C2OC(COP(=O)(O)OP(=O)(O)OP(=O)(O)O)C(O)C2(F)F)c(=O)n1 (stereo not shown)", "tested on": "pyrG", "test": "enzyme activity, inhibitor", "setting": "wild type, added: UTP 0.20 mM", "quantity": "IC50", "value": "3.9 µM"}
{"SMILES": "CC(C)[C@@H](Nc1nc(Cl)nc2c1ncn2[C@H]1[C@H](O)[C@H](O)[C@]2(CO)C[C@H]12)C1CC1", "tested on": "HTR2C (Homo sapiens, UniProt P28335)", "test": "binding", "setting": "added: [3H]mesulergine", "quantity": "Ki", "value": "0.186 µM"}
{"note": "Repeated from above:"}
{"SMILES": "Nc1ccn(C2OC(COP(=O)(O)OP(=O)(O)OP(=O)(O)O)C(O)C2F)c(=O)n1 (stereo not shown)", "tested on": "pyrG", "test": "enzyme activity, inhibitor", "setting": "wild type, added: UTP 0.05 mM", "quantity": "IC50", "value": "35 µM"}
{"SMILES": "O=C(/C=C/c1ccc(OCc2ccc([N+](=O)[O-])cc2)cc1)NCCc1c[nH]c2ccccc12", "tested on": "BCHE", "quantity": "IC50", "value": "0.55 ± 0.04 µM"}
{"SMILES": "CC[C@H](C)[C@H](NC(=O)CNC(=O)[C@H](CS)NC(=O)CNC(=O)[C@H](CO)NC(=O)[C@@H](NC(=O)[C@@H](NC(=O)[C@@H](NC(=O)[C@H](CC(N)=O)NC(=O)[C@@H](NC(=O)[C@H](CO)NC(=O)[C@H](CS)NC(=O)[C@H](C)NC(=O)[C@H](Cc1ccccc1)NC(=O)[C@H](CCCNC(=N)N)NC(=O)[C@H](CS)NC(=O)[C@H](CCCCN)NC(=O)[C@@H](NC(=O)CNC(=O)[C@@H](N)CO)[C@@H](C)CC)[C@@H](C)CC)[C@@H](C)O)[C@@H](C)O)[C@@H](C)CC)C(=O)N[C@@H](CO)C(=O)N[C@@H](CS)C(=O)N[C@@H](CCCCN)C(=O)N[C@@H](Cc1ccccc1)C(=O)O", "tested on": "Pseudomonas aeruginosa", "quantity": "MIC", "value": "16 µM"}
